Published values pooled from the literature.
Lines come from different studies, so protocols differ. ± gives the spread as reported.

`N=C(N)NCCC[C@@H]1NC(=O)[C@H](CCCCNC(=O)CNC(=O)CNC(=O)CNC(=O)CC[C@H](NC(=O)CNC(=O)CNC(=O)CNC(=O)CN2CCN(CC(=O)O)CCN(CC(=O)O)CCN(CC(=O)O)CC2)C(=O)NCC(=O)NCC(=O)NCC(=O)NCCCC[C@@H]2NC(=O)[C@@H](Cc3ccccc3)NC(=O)[C@H](CC(=O)O)NC(=O)CNC(=O)[C@H](CCCNC(=N)N)NC2=O)NC(=O)[C@@H](Cc2ccccc2)NC(=O)[C@H](CC(=O)O)NC(=O)CNC1=O` [copper-64 labelled] gave a tissue uptake of 2.17 ± 0.45 %ID/g (athymic nude mouse, female, whole blood; iv, 0.5 h).
`Cc1cc(O)cc(C)c1C[C@H](NC(=O)[C@@H]1CCCN1C(=O)[C@H](CCCNC(=N)N)NC(=O)[C@H](CCCNC(=N)N)N(C)C(=O)[C@@H]1CCCN1C(=O)[C@H](CCCCN)NC(=O)[C@@H](CC(C)C)NC(=O)[C@@H](CC(C)C)NC(=O)[C@@H](CC(C)C)NC(=O)[C@@H](CC(C)C)NC(=O)CN1CCN(CC(=O)O)CCN(CC(=O)O)CCN(CC(=O)O)CC1)C(=O)N[C@H](C(=O)N[C@@H](CC(C)C)C(=O)O)C(C)(C)C` [lutetium-177 labelled] gave a tissue uptake of 69 ± 6.22 %ID/g (CF-1 mouse, kidney; iv, 370 kBq, 1 h).
The tissue uptake of `CSCC[C@H](NC(=O)[C@H](CC(C)C)NC(=O)[C@H](Cc1c[nH]cn1)NC(=O)CNC(=O)[C@@H](NC(=O)[C@H](C)NC(=O)[C@H](Cc1c[nH]c2ccccc12)NC(=O)[C@H](CCC(N)=O)NC(=O)CCOCCOCCOCCOCCNC(=O)CN1CCN(CC(=O)O)CCN(CC(=O)O)CCN(CC(=O)O)CC1)C(C)C)C(N)=O` [indium-111 labelled] is reported as 1.6 ± 0.2 %ID/g (Swiss nu/nu mouse, male, PC-3 tumour xenograft, tumour; intravenous, 10 pmol, 4 h).
With `CCCC[C@H](NC(=O)CNC(=O)CNC(=O)CN1CCN(CC(=O)O)CCN(CC(=O)O)CC1)C(=O)N[C@H]1CC(=O)NCCCC[C@@H](C(N)=O)NC(=O)[C@H](Cc2c[nH]c3ccccc23)NC(=O)[C@H](CCCNC(=N)N)NC(=O)[C@@H](Cc2ccccc2)NC(=O)[C@H](Cc2c[nH]cn2)NC1=O` [technetium-99m labelled] the tissue uptake was 3.16 ± 2.28 %ID/g (C57 mouse, tumor; iv, 0.037 MBq, 24 h).
`CCCC[C@H](NC(=O)CNC(=O)CNC(=O)CN1CCN(CC(=O)O)CCN(CC(=O)O)CCN(CC(=O)O)CC1)C(=O)N[C@H]1CC(=O)NCCCC[C@@H](C(N)=O)NC(=O)[C@H](Cc2c[nH]c3ccccc23)NC(=O)[C@H](CCCNC(=N)N)NC(=O)[C@@H](Cc2ccccc2)NC(=O)[C@H](Cc2c[nH]cn2)NC1=O` [lutetium-177 labelled] has a tissue uptake of 0.21 ± 0.14 %ID/g (C57 mouse, female, brain; intravenous, 0.037 MBq, 0.5 h).
The tissue uptake of `Cc1cc(O)cc(C)c1C[C@H](NC(=O)[C@@H]1CCCN1C(=O)[C@H](CCCNC(=N)N)NC(=O)[C@H](CCCNC(=N)N)N(C)C(=O)[C@@H]1CCCN1C(=O)[C@@H](CC(C)C)NC(=O)[C@@H](CC(C)C)NC(=O)[C@@H](CC(C)C)NC(=O)[C@@H](CC(C)C)NC(=O)[C@H](CCCCN)NC(=O)CN1CCN(CC(=O)O)CCN(CC(=O)O)CCN(CC(=O)O)CC1)C(=O)N[C@H](C(=O)N[C@@H](CC(C)C)C(=O)O)C(C)(C)C` [lutetium-177 labelled] is reported as 2.72 ± 0.48 %ID/g (CF-1 mouse, small intestine; iv, 370 kBq, 1 h).
The tissue uptake of `CC(C)[C@H](NC(=O)[C@@H]1CCCN1C(=O)[C@H](CCCNC(=N)N)NC(=O)[C@H](CS)NC(=O)[C@H](Cc1c[nH]c2ccccc12)NC(=O)[C@H](CCCNC(=N)N)NC(=O)[C@@H](Cc1ccccc1)NC(=O)[C@H](Cc1c[nH]cn1)NC(=O)[C@H](CCC(=O)O)NC(=O)[C@H](CS)NC(=O)[C@H](CS)NC(=O)[C@H](CCCCN)NC(=O)[C@@H]1CC(=O)N[C@@H](CCCNC(=N)N)C(=O)N[C@H](Cc2ccccc2)C(=O)N[C@@H](CC(=O)O)C(=O)N[C@H](Cc2ccc(O)cc2)C(=O)N1)C(N)=O` [technetium-99m labelled] is reported as 0.82 ± 0.14 %ID (C57 mouse, female, intestine; intravenous, 0.037 MBq, 24 h).
The tissue uptake of `CC(C)C[C@H](NC(=O)CN1CCN(CC(=O)O)CCN(CC(=O)O)CC1)C(=O)N[C@@H](CC(C)C)C(=O)N[C@@H](CC(C)C)C(=O)N[C@@H](CC(C)C)C(=O)N[C@@H](CCCNC(=N)N)C(=O)N[C@H](C(=O)N[C@@H](CCCCN)C(=O)N[C@@H](CCCNC(=N)N)C(N)=O)C(C)C` [copper-64 labelled] is reported as 1.7 ± 0.2 %ID/g (CD1 mouse, male, lungs; intravenous, 15 min, blocked, unlabelled peptide 0.1 µmol).
For `CC(C)C[C@H](NC(=O)[C@@H](CCCCNC(=O)CCCCCNC(=O)CN1CCN(CC(=O)O)CCN(CC(=O)O)CCN(CC(=O)O)CC1)NC(=O)[C@H](Cc1ccc(O)cc1)NC(=O)[C@H](CO)NC(=O)[C@H](Cc1c[nH]c2ccccc12)NC(=O)[C@H](Cc1cnc[nH]1)NC(=O)[C@@H]1CCC(=O)N1)C(=O)N[C@@H](CCCNC(=N)N)C(=O)N1CCC[C@H]1C(=O)NCC(N)=O` [indium-111 labelled], the tissue uptake was 0.31 ± 0.31 %ID/g (female athymic nude mouse, stomach; intravenous, 0.037 MBq, 2 h).
With `N=C(N)NCCC[C@@H]1NC(=O)[C@H](CCCCNC(=S)Nc2ccc(CC3CN(CC(=O)O)CCN(CC(=O)O)CCN3CC(=O)O)cc2)NC(=O)[C@@H](Cc2ccc(O)cc2)NC(=O)[C@H](CC(=O)O)NC(=O)CNC1=O` (stereo partly drawn) [gallium-68 labelled] the tissue uptake was 1.05 ± 0.24 %ID/g (mouse BALB/c nude, female, kidney; 1 h).
With `N=C(N)NCCC[C@@H]1NC(=O)[C@H](CCCCNC(=O)CCOCCOCCOCCOCCNC(=O)CC[C@H](NC(=O)CCOCCOCCOCCOCCNC(=O)CN2CCN(CC(=O)O)CCN(CC(=O)O)CCN(CC(=O)O)CC2)C(=O)NCCOCCOCCOCCOCCC(=O)NCCCC[C@@H]2NC(=O)[C@@H](Cc3ccccc3)NC(=O)[C@H](CC(=O)O)NC(=O)CNC(=O)[C@H](CCCNC(=N)N)NC2=O)NC(=O)[C@@H](Cc2ccccc2)NC(=O)[C@H](CC(=O)O)NC(=O)CNC1=O` [copper-64 labelled] the tissue uptake was 1.87 ± 0.51 %ID/g (athymic nu/nu mouse, female, liver; intravenous, 4 h).
`Cc1cc(O)cc(C)c1C[C@H](NC(=O)[C@@H]1CCCN1C(=O)[C@H](CCCNC(=N)N)NC(=O)[C@H](CCCNC(=N)N)N(C)C(=O)[C@@H]1CCCN1C(=O)[C@@H](CC(C)C)NC(=O)[C@@H](CC(C)C)NC(=O)[C@H](CCCCN)NC(=O)[C@@H](CC(C)C)NC(=O)[C@@H](CC(C)C)NC(=O)CN1CCN(CC(=O)O)CCN(CC(=O)O)CCN(CC(=O)O)CC1)C(=O)N[C@H](C(=O)N[C@@H](CC(C)C)C(=O)O)C(C)(C)C` [lutetium-177 labelled] has a tissue uptake of 0.06 ± 0.08 %ID/g (CF-1 mouse, blood; iv, 370 kBq, 4 h).
